Assay results pooled from the literature.
Protocols differ between the studies behind these lines. ± marks the error that the study gave.
UCHL1: Ubiquitin carboxyl-terminal hydrolase isozyme L1 (UCHL1, Homo sapiens, UniProt P09936)
UniProt P09936, sequence (whole entry, looked up): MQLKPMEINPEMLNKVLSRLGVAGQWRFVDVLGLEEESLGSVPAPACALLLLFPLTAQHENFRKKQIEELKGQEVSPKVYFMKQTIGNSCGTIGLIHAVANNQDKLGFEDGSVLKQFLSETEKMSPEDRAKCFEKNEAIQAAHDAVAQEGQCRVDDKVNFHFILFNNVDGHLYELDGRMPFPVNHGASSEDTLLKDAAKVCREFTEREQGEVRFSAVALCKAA

`Cc1c(-c2ccc(N3CCc4cccc(C(=O)Nc5nc6ccccc6s5)c4C3)nc2C(=O)O)cnn1CC12CC3(C)CC(C)(C1)CC(OCCNCC[C@H](O)CO)(C3)C2` — result for “QTcV interval change”: 16 ms (beagle dog, male, anaesthetised; intravenous infusion, 0.3 mg/kg/min, 105 min; baseline: vehicle).
With `CCCCNC(=O)C(C#N)=Cc1c(Cl)cccc1Cl` the labelling was 9.02% (UCHL1; covalent, intact protein LC-MS; 12.5 µM).
`O=C(O)CCC(=O)O.[2H]C([2H])([2H])Oc1cc(C)c2[nH]ccc2c1CN1CC[C@@H](C2CC2)C[C@H]1c1ccc(C(=O)O)cc1` — result for “TEAE decreased fibrinogen”: 0% (healthy Chinese subjects; 600 mg, single ascending dose).
With `CNCc1ccc(-c2[nH]c3cc(F)cc4c3c2CCNC4=O)cc1` the constipation incidence was 15.4% (patients; oral, 600 mg twice daily, grade 1).
For `C=CC(=O)Nc1cc(S(=O)(=O)N(C)C)cc(C)c1C`, the labelling was 11.8% (UCHL1; covalent, intact protein LC-MS; 12.5 µM).
`C=CC[C@@H]1/C=C(\C)C[C@H](C)C[C@H](OC)[C@H]2O[C@@](O)(C(=O)C(=O)N3CCCC[C@H]3C(=O)O[C@H](/C(C)=C/[C@@H]3CC[C@@H](O)[C@H](OC)C3)[C@H](C)[C@@H](O)CC1=O)[C@H](C)C[C@@H]2OC`: “plasma HCO3− level” 23.8 ± 1.2 mmol/L (Wistar Kyoto rat, male, plasma; ip, 0.5 mg/kg/day, day 18).
For `Cc1cc(C)c(CNC(=O)c2cc(Cl)c3c(c2C)O[C@@](C)([C@H]2CC[C@H](N(C)C)CC2)O3)c(=O)[nH]1`, “patients with TEAE” read 41.7% (CTCAE v4.0, item: platelet count decreased; human relapsed/refractory NHL; oral, 200 mg once daily, onset after cycle 1 day 1, overall treatment period).
The AUC(0-last) of `CNC(=O)c1cc(Oc2ccc(NC(=O)Nc3ccc(Cl)c(C(F)(F)F)c3)c(F)c2)ccn1` is reported as 19300 ± 2150 ng·h/mL (male DBA/1lacJ Oatp1b2 knockout mice, plasma; oral, 10 mg/kg single dose).
The Papp of `COc1cc2[nH]c(C)c(-c3ccc(C(F)(F)F)cc3F)c(=O)c2cc1Cl` is reported as 688 ×10⁻⁶ cm/s (PAMPA; pH 7.4).
Under “mean blood pressure”, `CCN1/C(=C/C(C)=O)Sc2ccc(F)cc21` is recorded as 90 ± 3 mmHg (cynomolgus monkey; oral, 30 mg/kg, 6 h post-dose).
Under “urinary magnesium excretion change”, `Cc1ccc([C@@H]2O[C@H](CO)[C@@H](O)[C@H](O)[C@H]2O)cc1Cc1ccc(-c2ccc(F)cc2)s1` is recorded as 5.28 mg (Japanese type 2 diabetes patients; 200 mg, day 15, 24 h urine collection; baseline: baseline).
`CNc1ccc(-c2nc3ccc(O)cc3s2)cc1` [carbon-11 labelled] gave an SUV of 0.171 ± 0.072 (ex vivo biodistribution; APP/PS1 mouse, AD model, muscle; intravenous, 30 min).
For `CCCCCCCOc1ccc(CCC(N)(CO)CO)cc1C(F)(F)F.Cl`, the AUC(0-tau) was 5.99 ng·h/mL (healthy men, plasma; oral, 0.75 mg, day 1).
`CC[C@H](C)[C@H](NC(=O)CN)C(=O)N[C@@H](C)C(=O)N[C@@H](CC(=O)O)C(=O)N[C@@H](C)C(=O)N[C@H](C(=O)N[C@@H](CCCCN)C(=O)N[C@@H](CCCCN)C(=O)N[C@H](C(=O)N[C@@H](C)C(=O)N[C@@H](CCCCN)C(=O)N[C@@H](C)C(=O)N[C@@H](CC(C)C)C(=O)NCC(N)=O)[C@@H](C)CC)[C@@H](C)CC` — result for “mean residue ellipticity”: -8630 deg cm2/dmol (circular dichroism at 222 nm; 30% TFE; 100 µM).
With `CC(C)c1nc(N(C)S(C)(=O)=O)nc(-c2ccc(F)cc2)c1/C=C/[C@@H](O)C[C@@H](O)CC(=O)O` the plasma concentration was 614 ng/mL (Wistar albino rat, both sexes, plasma; oral, 20 mg/kg, 5.5 h).
For `CNC(=O)c1ccc(-c2cnc3ncc(Cc4ccc5ncccc5c4)n3n2)cc1F`, “dry mouth incidence (all grades)” read 11% (CTCAE v4.0, any causality; human cancer patients; oral, 600 mg twice daily, expansion cohort at RP2D).
`COc1ccc([C@@H](O)c2cc(-c3ncnc4cc(N5CCOCC5)ccc34)c(F)cc2Cl)nn1`: “metabolism nutrition disorder TEAE” 67% (locally advanced rectal cancer patients; 250 mg, added: capecitabine and radiotherapy).
The inhibition of `CCCCC(=O)NC(c1ccc(N(CC)CC)cc1)c1ccc2cccnc2c1O` (stereo not shown) is reported as -10.4% (Trypanosoma cruzi; reporter translation, Renilla luciferase mRNA translation; cell-free extract; 40 µM; baseline: DMSO).
The C0 of `Cc1nc2ccc(OCc3ccc(C(F)(F)F)cc3)cc2[nH]1` is reported as 6870 ± 722 ng/mL (Balb/c mice, male, plasma; intravenous, 1 mg/kg).
Under “treatment-related decreased appetite”, `C=CCN1CC(=O)N2[C@@H](Cc3ccc(O)cc3F)C(=O)N(Cc3cccc(N4CC(N5CCN(CC)CC5)C4)n3)C[C@@H]2N1C(=O)NCc1ccccc1` is recorded as 0% (advanced solid tumour patients; oral, 20 mg twice daily, any grade, dose-escalation).
`COc1cccc(Nc2nc(NCC3CCCO3)c3ccccc3n2)c1.Cl` (stereo not shown) has an inhibition of 23.1% (Trypanosoma cruzi; reporter translation, Renilla luciferase mRNA translation; cell-free extract; 40 µM; baseline: DMSO).
`CC(C)(C(=O)N1CCOc2c(C#N)cncc2C1)C(F)F`: “subjects with keratitis TEAE” 0% (human, both sexes; oral, 20 mg single dose).
With `CC(F)(F)c1cc(F)ccc1-c1sc2cc(O)ccc2c1Oc1ccc(/C=C/C(=O)O)cc1` the Tlast was 24 h (human, serum; oral, 200 mg once daily, cycle 1 day 28, fasted, median).
Under “mean blood pressure”, `C[C@H](CS)C(=O)N1CCC[C@H]1C(=O)O` is recorded as 36 ± 0.2 mmHg (male Hartley guinea pigs, anaesthetized; intravenous, 30 mg/kg group, baseline before infusion).
With `COc1cc2[nH]c(C)c(-c3ccc(OCc4ccccc4)cc3)c(=O)c2cc1Cl` the Papp was under 5 ×10⁻⁶ cm/s (PAMPA; pH 7.4).

A few entries again:
The Papp of `COc1cc2[nH]c(C)c(-c3ccc(C(F)(F)F)cc3F)c(=O)c2cc1Cl` is reported as 688 ×10⁻⁶ cm/s (PAMPA; pH 7.4).
The C0 of `Cc1nc2ccc(OCc3ccc(C(F)(F)F)cc3)cc2[nH]1` is reported as 6870 ± 722 ng/mL (Balb/c mice, male, plasma; intravenous, 1 mg/kg).
`COc1ccc([C@@H](O)c2cc(-c3ncnc4cc(N5CCOCC5)ccc34)c(F)cc2Cl)nn1`: “metabolism nutrition disorder TEAE” 67% (locally advanced rectal cancer patients; 250 mg, added: capecitabine and radiotherapy).
